{"data": "Published values collected from several papers", "note": "Protocols differ between the studies behind these lines. ± gives the spread as reported."}
{"Compound": "CC[C@H]1OC(=O)[C@H](C)[C@@H](O[C@H]2C[C@@](C)(OC)[C@@H](O)[C@H](C)O2)[C@H](C)[C@@H](O[C@@H]2O[C@H](C)C[C@H](N(C)C)[C@H]2O)[C@](C)(O)C[C@@H](C)C(=O)[C@H](C)[C@@H](O)[C@]1(C)O", "assay": "starch gel membrane permeability", "system": "Gram-negative envelope surrogate", "conditions": "200 µM, 20 min, pH 7.4", "endpoint": "amount permeated", "value": "0.16 nmol"}
{"Compound": "NC1(C(=O)N[C@@H](CCO)c2ccc(Cl)cc2)CCN(c2nc[nH]c3nccc2-3)CC1", "system": "metastatic CRPC patients", "conditions": "400 mg b.i.d., any grade, treatment-related, added: enzalutamide 160 mg daily", "endpoint": "incidence of Leukopenia", "value": "0%"}
{"Compound": "COc1ccc2c(=O)n(C)c(-c3ccccc3)nc2c1", "system": "Sprague-Dawley rat, male, large intestine", "conditions": "oral, 30 mg/kg, 4 h", "how to read": "reference: large intestine over plasma", "endpoint": "tissue/plasma ratio", "value": 7630}
{"Compound": "Cc1nc2cccc(OCC(C)(C)C(=O)NC(C)C)c2c(N)c1C(=O)O", "system": "Sprague-Dawley rat, plasma", "conditions": "oral, 10 mg/kg, day 7", "how to read": "reference: female over male", "endpoint": "AUC(0-last) ratio", "value": "1.23 ± 1"}
{"Compound": "CC(C)(C(=O)N1CCOc2c(C#N)cncc2C1)C(F)F", "assay": "measured: Gastrointestinal disorders", "system": "human", "conditions": "oral, 15 mg twice daily, 14 days, multiple ascending dose", "endpoint": "subjects with adverse event", "value": "25%"}
{"Compound": "COc1ccc2nc([S+]([O-])Cc3ncc(CO)c(OC)c3C)[nH]c2c1 (stereo not drawn)", "system": "human, dried plasma spots", "conditions": "4 h, added: fluvoxamine and voriconazole", "how to read": "reference: inhibited over baseline", "endpoint": "R/S enantiomer ratio fold change", "value": 0.34}
{"Compound": "O=C(O)CNC(=O)c1ccccc1", "system": "human plasma", "conditions": "median, both sexes", "endpoint": "plasma concentration", "value": "345000 nM"}
{"Compound": "CC(=O)O[C@H]1C(=O)[C@@]2(C)[C@H]([C@H](OC(=O)c3ccccc3)[C@]3(O)C[C@H](OC(=O)[C@H](O)[C@@H](NC(=O)c4ccccc4)c4ccccc4)C(C)=C1C3(C)C)[C@]1(OC(C)=O)CO[C@@H]1C[C@@H]2O", "assay": "measured: Pyrexia", "system": "patients with advanced solid tumours", "conditions": "intravenous, dose not given, grade 3 and 4, possibly related to drug", "endpoint": "adverse event incidence", "value": "0%"}
{"Compound": "CC(=O)Nc1ccc(NC(=S)NC(=O)c2ccc(C(C)(C)C)cc2)cc1", "target or system": "OCI-Ly1", "conditions": "1 µM, 120 h", "endpoint": "viability", "value": "29%"}
{"Compound": "CC[C@@](O)(c1cnc(C(F)(F)F)c(Cl)c1)c1c2cnn(C3CC3)c(=O)c2nn1C", "system": "rat Sprague-Dawley male, plasma", "conditions": "intravenous, 1 mg/kg", "endpoint": "CL", "value": "2.07 ± 0.284 mL/min/kg"}
{"Compound": "O=C(N[C@H](Cc1c[nH]c2ccccc12)C(=O)Nc1ccncc1)c1ccc(N2CCN(c3ccc(F)c(F)c3)CC2)cc1F", "system": "Swiss Webster mouse, female, fat", "conditions": "oral, 50 mg/kg, 8 h, 20% HPβCD vehicle", "endpoint": "concentration", "value": "320 nM"}
{"Compound": "COc1ccc([C@@H](O)c2cc(-c3ncnc4cc(N5CCOCC5)ccc34)c(F)cc2Cl)nn1", "system": "locally advanced rectal cancer", "conditions": "oral, 100 mg, added: capecitabine and radiotherapy", "endpoint": "radiation skin injury TEAE", "value": "50%"}
{"Compound": "[H]/N=C(/N)N[C@H]1[C@H](O)[C@@H](O)[C@H](O[C@@H]2O[C@@H](C)[C@](O)(C=O)[C@H]2O[C@@H]2O[C@@H](CO)[C@H](O)[C@@H](O)[C@@H]2NC)[C@@H](N/C(N)=N\\[H])[C@@H]1O", "assay": "starch gel membrane permeability", "system": "Gram-negative envelope surrogate", "conditions": "200 µM, 30 min, pH 7.4", "endpoint": "amount permeated", "value": "0.7 nmol"}
{"Compound": "CNc1ccc(-c2nc3ccc(O)cc3s2)cc1 [carbon-11 labelled]", "assay": "microPET/CT imaging", "system": "APP/PS1 mouse, AD model, heart", "conditions": "intravenous, 10 min", "endpoint": "SUV", "value": "0.911 ± 0.582"}
{"Compound": "Cn1c(=O)c2[nH]cnc2n(C)c1=O", "system": "human, both sexes, plasma", "endpoint": "samples above LOQ", "value": "100%"}
{"Compound": "CCCc1cc(C)[nH]c(=O)c1CNC(=O)c1cc(-c2ccc(N3CCN(C(C)C)CC3)nc2)cc2c1cnn2C(C)C", "target or system": "OCI-Ly1", "conditions": "1 µM, 120 h", "endpoint": "viability", "value": "76.3%"}
{"Compound": "Cc1cc(Nc2cc3ncccc3c(N[C@@H]3C[C@H]4CC[C@@H](C3)N4CCC#N)n2)n[nH]1", "system": "healthy human subjects", "conditions": "oral, 1000 mg, 2 weeks, single ascending dose", "endpoint": "sneezing incidence", "value": "0%"}
{"Compound": "Cc1cc(-c2nnc(N)nc2-c2ccc(F)cc2)cc(Cl)n1", "assay": "measured: psoriasiform dermatitis, grade ≥ 3", "system": "male IO-naive mCRPC patients", "conditions": "oral, dose not given", "endpoint": "incidence of AE, immune-mediated, treatment-related", "value": "0%"}
{"Compound": "CCN1/C(=C/C(C)=O)Sc2ccc(F)cc21", "system": "cynomolgus monkey", "conditions": "oral, 10 mg/kg, 4 h post-dose", "how to read": "reference: pre-dose", "endpoint": "mean blood pressure change", "value": "113 ± 12.5%"}
{"Compound": "O=C(O)[C@H]1O[C@@H](Oc2cc(-c3oc4cc(O)cc(O)c4c(=O)c3O)ccc2O)[C@H](O)[C@@H](O)[C@@H]1O", "system": "human plasma", "conditions": "mean", "endpoint": "plasma concentration", "value": "105 nM"}
{"Compound": "Cc1ccc([C@@H]2O[C@H](CO)[C@@H](O)[C@H](O)[C@H]2O)cc1Cc1ccc(-c2ccc(F)cc2)s1", "assay": "measured: inorganic phosphorus", "system": "Japanese type 2 diabetes patients", "conditions": "200 mg, day 2, 24 h urine collection", "how to read": "reference: baseline", "endpoint": "urinary phosphate excretion change", "value": "109 mg"}
{"note": "Excerpt of the above:"}
{"Compound": "[H]/N=C(/N)N[C@H]1[C@H](O)[C@@H](O)[C@H](O[C@@H]2O[C@@H](C)[C@](O)(C=O)[C@H]2O[C@@H]2O[C@@H](CO)[C@H](O)[C@@H](O)[C@@H]2NC)[C@@H](N/C(N)=N\\[H])[C@@H]1O", "assay": "starch gel membrane permeability", "system": "Gram-negative envelope surrogate", "conditions": "200 µM, 30 min, pH 7.4", "endpoint": "amount permeated", "value": "0.7 nmol"}
{"Compound": "CNc1ccc(-c2nc3ccc(O)cc3s2)cc1 [carbon-11 labelled]", "assay": "microPET/CT imaging", "system": "APP/PS1 mouse, AD model, heart", "conditions": "intravenous, 10 min", "endpoint": "SUV", "value": "0.911 ± 0.582"}
{"Compound": "Cn1c(=O)c2[nH]cnc2n(C)c1=O", "system": "human, both sexes, plasma", "endpoint": "samples above LOQ", "value": "100%"}
{"Compound": "CCCc1cc(C)[nH]c(=O)c1CNC(=O)c1cc(-c2ccc(N3CCN(C(C)C)CC3)nc2)cc2c1cnn2C(C)C", "target or system": "OCI-Ly1", "conditions": "1 µM, 120 h", "endpoint": "viability", "value": "76.3%"}
